Experimental data gathered from unrelated publications.
Protocols differ between the studies behind these lines. Several values in a cell are separate wells, animals, samples, runs or records.

Under “fold change in expression”, `Cn1cc(-c2ccc(-c3cncc(Cl)c3N3CCC4(CCNC4=O)CC3)cc2)cn1` is recorded as 1.13 (COLO 205; microarray, refers to: PGF; concentration not given, 2 h, gene set PLGF; reference: untreated cells).
`CCCCN1CCCC[C@H]1C(=O)Nc1c(C)cccc1C` has a Vmax of 637 pmol/min/mg protein (H+/organic cation antiporter; cell uptake; hCMEC/D3).
For `c1coc(-c2n[nH]cc2-c2ccnc3ccccc23)c1`, “log2 fold change” read -0.03 (RTK1 (Candida albicans); kinase binding, MIB/MS competition; Candida albicans lysate; 1 µM; reference: DMSO).
`CCn1cc(-c2cc(Cn3ccoc3=N)cc3c2CCN([C@@H](C)c2cc(OC)ccn2)C3=O)c(C(F)(F)F)n1` gave an EC50 of greater than 30 µM (Capan-2; cell growth, inhibitor; 120 h).
`Oc1ccccc1-c1n[nH]cc1-c1ccnc2ccccc12` — result for “log2 fold change”: 0.44 (CDC7 (Candida albicans); kinase binding, MIB/MS competition; Candida albicans lysate; 10 µM; reference: DMSO).
`O=C(/C=C/C=C/C=C/C1CCCCC1)NC1=C[C@@](O)(/C=C/C=C/C=C/C(=O)NC2=C(O)CCC2=O)[C@@H]2O[C@@H]2C1=O` has a GI50 of 18.9 µM (snu410; cell growth, inhibitor, CellTiter-Glo luminescence; 78 h; reference: day 0 cell count).
`NC(=O)C1(N2CCCCC2)CCN(CCCC(=O)c2ccc(F)cc2)CC1` has a Vmax of 2040 pmol/min/mg protein (H+/organic cation antiporter; cell uptake; hCMEC/D3).
`CC[S+]([O-])c1nc(-c2ccccc2)cc(C(F)(F)F)n1` (stereo not drawn) — result for “cells with nuclear reporter”: 90% and 81.3% and 78.1% and 78.8% (importin alpha/beta-1; cMyc nuclear import, high content imaging; HeLa Kyoto reporter; 0.158 µM, 2 h).
`OC(CCN1CCCCC1)(c1ccccc1)C1CC2C=CC1C2` (stereo not drawn): “change in EEG Beta1-power Pz-O1” -0.2% (resting-state EEG; healthy elderly humans; oral, 2 mg, eyes open, LS mean; reference: baseline).
`COc1cnc2cccc(N3CCc4c(cc(Cn5ccnc5C)cc4-c4cn(C)nc4C(F)(F)F)C3=O)c2c1` has an EC50 of greater than 30 µM (769-P; cell growth, inhibitor; 120 h).
The sarcomere length of `O=C(O)CNC(=O)Cc1ccccc1` is reported as 1.69 µm (ventricular cardiomyocytes, C57BL/6 mouse; dose not given, 0.8 s).
Under “total memory T-cell change”, `NC(=O)c1cnc2[nH]ccc2c1N[C@@H]1[C@@H]2CC3C[C@H]1C[C@@](O)(C3)C2` is recorded as -0.17% (flow cytometry; Japanese healthy men, blood; oral, 20 mg single dose, 24 h; reference: baseline).

For quick reference, copied from above:
`CCn1cc(-c2cc(Cn3ccoc3=N)cc3c2CCN([C@@H](C)c2cc(OC)ccn2)C3=O)c(C(F)(F)F)n1` gave an EC50 of greater than 30 µM (Capan-2; cell growth, inhibitor; 120 h).
